Measurements collected from several papers.
Protocols differ between the studies behind these lines.

| SMILES | host | sample | route | dose | notes | Cmax |
| --- | --- | --- | --- | --- | --- | --- |
| CCCc1nc2cc(C(=O)N3CCC4(CC3)CC(=O)c3cc5c(cc3O4)OC(C)(C)CC5)cc(C)c2[nH]1 | male C57BL/6 mouse | plasma | oral | 50 mg/kg | – | 7350 ng/mL |
| O=C(c1ccccc1)N1C(c2ccc(OCC3CCN(CCCF)C3)cc2)c2ccc(O)cc2CC12CC2 (stereo not drawn) | C57BL/6 mouse | plasma | oral | 25 mg/kg | – | 752 ng/mL |
| CCCCCCCCCCCCCCCC(=O)OCC(CSC[C@H](N)C(=O)NCC(=O)N[C@@H](CC(=O)O)C(=O)N1CCC[C@H]1C(=O)N[C@@H](CCCCN)C(=O)N[C@@H](Cc1c[nH]cn1)C(=O)N1CCC[C@H]1C(=O)N[C@@H](CCCCN)C(=O)N[C@@H](CO)C(=O)N[C@@H](Cc1ccccc1)C(=O)O)OC(=O)CCCCCCCCCCCCCCC (stereo partly drawn) | mouse | plasma | subcutaneous | 4 mg/kg | – | 1340 ng/mL |
| CN1CCc2cc(Nc3ncc(C(F)(F)F)c(NCc4cc[nH]n4)n3)ccc2C1 | C57BL/6 mouse | brain | oral | 50 mg/kg | single dose | 140 ng/mL |
| O=C1C2=C(CCN(Cc3ccccc3)C2)N2CCN=C2N1Cc1ccc(C(F)(F)F)cc1 | female CD-1 mouse | plasma | oral | 50 mg/kg | – | 2020 ng/mL |
| CN(C)CCNC(=O)/C=C/[C@H](Cc1ccccc1)Nc1ccnc2cc(Cl)ccc12 | CD-1 mouse | plasma | oral | 5 mg/kg | single dose | 10.5 ng/mL |
| Nc1ccn(C[C@@H](CO)OCP(=O)(O)OCCCS(=O)(=O)CCCCCCCCCCC2CCC2)c(=O)n1 | mouse | plasma | intravenous | 3 mg/kg | single dose | 1160 ng/mL |
| CCS(=O)(=O)c1ccccc1C(=O)N1CCN(c2nc3ccc(F)cc3s2)C[C@@H]1C | mouse | plasma | intravenous | 3 mg/kg | – | 1660 ng/mL |
| Cc1ccc2oc(-c3c4c(N)n[nH]c(=O)c4nn3-c3ccc(NC(=O)/C=C/CN(C)C)cc3)c(C)c2c1 | mouse | plasma | intraperitoneal | 3 mg/kg | – | 282 ng/mL |
| C[C@H]1CN(C(=O)c2cn(-c3ccnc(N)n3)c3cc(C#CC4(O)CCCCC4)ccc23)CCN1 | CD-1 mouse | plasma | oral | 10 mg/kg | – | 340 ng/mL |
| Cc1nc(NC(=O)N2CCC[C@H]2C(N)=O)sc1-c1csc(C(C)(C)C)n1 | male CD-1 mouse | plasma | intraperitoneal | 10 mg/kg | single dose | 8.25 µM |
| C[N+]1(CC(=O)OC2CCCCCCCCCCC2)CCCCC1 | mouse | plasma | intraperitoneal | 1 mg/kg | single dose | 6.7 ng/mL |
| CCOC(=O)c1nc2cc(Cl)c(Cl)cc2nc1N1CCN(C(=O)Nc2ccc(N3CCNCC3)cc2)CC1 | male mouse | plasma | oral | 10 mg/kg | – | 38 ng/mL |
| O=C(Nc1ccc(OC(F)(F)F)cc1)N1CCC(Cc2cccc(Oc3ccc(C(F)(F)F)cn3)c2)CC1 | male Swiss mouse | blood | oral | 1 mg/kg | – | 0.098 µM |
| CCC/C(=C\C1=C(C(F)(F)F)C(=O)c2ccccc2C1=O)C(=O)N(CC)CC | mouse | plasma | oral | 25 mg/kg | – | < 10 ng/mL |
| Cc1cccc(O[C@H]2CCC[C@@H](C(C)CNCc3ccncc3)C2)c1 (relative stereo) | female C57BL/6 mouse | brain | oral | 25 mg/kg | – | 1700 ng/mL |
| CN1CCC(N[C@@H]2CCc3[nH]c4c(C(N)=O)ccc(-c5ccccc5Cl)c4c3C2)CC1 | mouse | plasma | intravenous | 2 mg/kg | – | 653 ng/mL |
| Cc1cc(O)cc(O)c1C(=O)c1c2c3c(c(O)cc(C)c3oc1=O)C(=O)c1c(O)cc(O)cc1-2 | male Kunming mouse | plasma | intraperitoneal | 15 mg/kg | – | 21000 ng/mL |

A few entries again:
| SMILES | host | sample | route | dose | notes | Cmax |
| --- | --- | --- | --- | --- | --- | --- |
| CCC/C(=C\C1=C(C(F)(F)F)C(=O)c2ccccc2C1=O)C(=O)N(CC)CC | mouse | plasma | oral | 25 mg/kg | – | < 10 ng/mL |
